# Assay results gathered from unrelated publications.
# Each line is one published result; not all experiments were run side by side. Values joined by “and” are separate records of one study, mostly repeats; a detail may differ. Numbers after ± are the reported error.
# OPRM1: Mu-type opioid receptor (OPRM1, Homo sapiens, UniProt P35372)
# Chain of UniProt P35372 (whole entry, looked up): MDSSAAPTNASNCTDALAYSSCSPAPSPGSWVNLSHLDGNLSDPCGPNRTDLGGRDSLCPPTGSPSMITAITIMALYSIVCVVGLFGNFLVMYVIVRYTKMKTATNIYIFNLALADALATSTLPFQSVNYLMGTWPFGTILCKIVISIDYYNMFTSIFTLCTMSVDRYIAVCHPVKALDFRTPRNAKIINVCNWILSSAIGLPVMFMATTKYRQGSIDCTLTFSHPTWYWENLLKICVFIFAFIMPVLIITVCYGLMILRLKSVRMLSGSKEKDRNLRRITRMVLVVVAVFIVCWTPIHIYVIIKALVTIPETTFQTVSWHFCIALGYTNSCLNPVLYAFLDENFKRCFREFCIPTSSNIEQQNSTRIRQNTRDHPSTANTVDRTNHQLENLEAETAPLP
SMILES,target,assay,system,setting,quantity,result
C[C@@H](O)[C@H](NC(=O)[C@H]1NC(=O)[C@H]([C@@H](C)O)NC(=O)[C@H](CCCN)NC(=O)[C@@H](Cc2c[nH]c3ccccc23)NC(=O)[C@H](Cc2ccc(O)cc2)NC(=O)[C@@H](NC(=O)[C@H](N)Cc2ccccc2)CSSC1(C)C)C(N)=O,OPRM1,,,,Ki,5.46 ± 0.7 nM
Cc1cc(O)cc(C)c1C[C@H](N)C(=O)N1Cc2ccccc2C[C@H]1C(=O)NCC(=O)NCc1ccccc1,OPRM1,"GTPγS binding, agonist, radiometric",,cell membranes,EC50,19 nM
CC[C@H](C)[C@H](NC(=O)[C@@H](N)Cc1ccc(O)cc1)C(=O)N[C@@H](Cc1ccccc1)C(=O)N[C@@H](CC(N)=O)C(=O)N[C@@H](CC(C)C)C(=O)O,OPRM1,"binding, radioligand displacement",PC-3,added: [3H]DAMGO,IC50,0.043 ± 9.7e-14 nM
CC(C)C[C@H](NC(=O)[C@H](Cc1ccccc1)NC(=O)CN(Cc1ccccc1[N+](=O)[O-])C(=O)CNC(=O)[C@@H](N)Cc1ccc(O)cc1)C(=O)O,OPRM1,"reporter gene (SEAP), agonist",HEK-293T cells,"caged form, no photolysis",EC50,28900 nM
CN(C)[C@H](CNC(=O)/C=C/c1cccc2ccccc12)Cc1ccc(O)cc1,"Mu-type opioid receptor, with Gz (OPRM1, Homo sapiens, UniProt P35372)","receptor activation, agonist",,,EC50,3.8 nM
CC(C)[C@H]1CC[C@H](N2CC[C@@](C)(c3cccc(O)c3)[C@@H](C)C2)CC1,OPRM1,"ligand displacement, radioligand",,,Ki,6 nM and 6.01 nM
CC(C)C[C@H](NC(=O)[C@H](Cc1ccccc1)NC(=O)CNC(=O)CN(Cc1ccccc1[N+](=O)[O-])C(=O)[C@@H](N)Cc1ccc(O)cc1)C(=O)O,OPRM1,"reporter gene (SEAP), agonist",HEK-293T cells,"caged form, no photolysis",EC50,5670 nM
Cc1cc(O)cc(C)c1C[C@H](N)C(=O)N[C@@H]1CSSC[C@@H](NC(=O)[C@@H](N)Cc2c(C)cc(O)cc2C)C(=O)NCC(=O)N[C@@H](Cc2ccccc2)C(=O)NNC(=O)[C@H](Cc2ccccc2)NC(=O)CNC1=O,OPRM1,"GTPγS binding, agonist, radiometric",,cell membranes,EC50,7.6 nM

# Excerpt of the above:
SMILES,target,assay,system,setting,quantity,result
CN(C)[C@H](CNC(=O)/C=C/c1cccc2ccccc12)Cc1ccc(O)cc1,"Mu-type opioid receptor, with Gz (OPRM1, Homo sapiens, UniProt P35372)","receptor activation, agonist",,,EC50,3.8 nM
